Experimental data pooled from the literature.
Lines come from different studies, so protocols differ. Numbers after ± are the reported error.
GRPR: Gastrin-releasing peptide receptor (GRPR, Homo sapiens, UniProt P30550)
Sequence of UniProt P30550 (whole entry, looked up): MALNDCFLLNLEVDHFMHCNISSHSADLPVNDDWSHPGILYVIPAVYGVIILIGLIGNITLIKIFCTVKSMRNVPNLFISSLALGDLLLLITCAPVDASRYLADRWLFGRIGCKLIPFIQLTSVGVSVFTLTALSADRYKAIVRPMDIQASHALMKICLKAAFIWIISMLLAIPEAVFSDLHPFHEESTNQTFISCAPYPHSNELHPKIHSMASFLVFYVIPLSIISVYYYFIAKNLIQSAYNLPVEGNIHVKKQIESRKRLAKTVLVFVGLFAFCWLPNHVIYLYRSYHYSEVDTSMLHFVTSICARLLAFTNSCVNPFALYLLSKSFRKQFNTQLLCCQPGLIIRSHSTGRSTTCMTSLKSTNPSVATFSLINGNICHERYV
Mc1r: Melanocyte-stimulating hormone receptor (Mc1r, Mus musculus, UniProt Q01727)
Sequence of UniProt Q01727 (whole entry, looked up): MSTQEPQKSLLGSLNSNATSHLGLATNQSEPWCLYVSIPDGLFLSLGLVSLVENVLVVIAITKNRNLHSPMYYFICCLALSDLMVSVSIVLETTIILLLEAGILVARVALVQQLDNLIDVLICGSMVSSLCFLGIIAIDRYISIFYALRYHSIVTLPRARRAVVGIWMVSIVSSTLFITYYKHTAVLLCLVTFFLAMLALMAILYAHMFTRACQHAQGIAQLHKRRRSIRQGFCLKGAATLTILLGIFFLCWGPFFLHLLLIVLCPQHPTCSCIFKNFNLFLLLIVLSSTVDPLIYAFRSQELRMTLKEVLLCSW
CHRM1: Muscarinic acetylcholine receptor M1 (CHRM1, Homo sapiens, UniProt P11229)
Sequence of UniProt P11229 (whole entry, looked up): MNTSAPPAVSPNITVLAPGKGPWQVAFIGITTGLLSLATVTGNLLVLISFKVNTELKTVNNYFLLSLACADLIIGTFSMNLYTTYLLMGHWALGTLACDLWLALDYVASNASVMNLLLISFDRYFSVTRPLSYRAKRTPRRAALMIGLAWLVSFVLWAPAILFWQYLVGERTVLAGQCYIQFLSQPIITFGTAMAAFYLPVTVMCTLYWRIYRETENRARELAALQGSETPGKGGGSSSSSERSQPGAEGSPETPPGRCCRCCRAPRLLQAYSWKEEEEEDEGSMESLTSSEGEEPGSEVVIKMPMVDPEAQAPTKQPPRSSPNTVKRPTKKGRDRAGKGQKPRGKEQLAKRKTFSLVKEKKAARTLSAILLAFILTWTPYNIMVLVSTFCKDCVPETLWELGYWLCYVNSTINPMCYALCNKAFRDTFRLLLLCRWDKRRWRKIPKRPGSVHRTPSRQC
Sequence of UniProt P20309 (whole entry, unmodified, looked up): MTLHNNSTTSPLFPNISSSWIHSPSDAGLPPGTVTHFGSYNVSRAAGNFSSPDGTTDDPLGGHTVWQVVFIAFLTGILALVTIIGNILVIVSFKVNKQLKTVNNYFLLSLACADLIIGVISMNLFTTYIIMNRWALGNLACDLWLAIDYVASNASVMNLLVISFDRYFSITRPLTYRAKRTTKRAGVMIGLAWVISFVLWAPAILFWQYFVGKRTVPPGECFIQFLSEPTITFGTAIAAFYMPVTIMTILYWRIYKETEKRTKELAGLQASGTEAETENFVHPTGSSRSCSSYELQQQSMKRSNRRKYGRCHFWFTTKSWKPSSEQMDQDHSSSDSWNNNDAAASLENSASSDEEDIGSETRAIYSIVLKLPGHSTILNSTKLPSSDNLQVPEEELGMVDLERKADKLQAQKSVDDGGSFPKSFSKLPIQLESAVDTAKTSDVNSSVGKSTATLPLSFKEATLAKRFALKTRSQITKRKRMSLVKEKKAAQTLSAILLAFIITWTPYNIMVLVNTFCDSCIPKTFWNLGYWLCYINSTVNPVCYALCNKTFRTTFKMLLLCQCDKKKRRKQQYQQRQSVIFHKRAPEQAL
Sequence of UniProt Q9NYW4 (whole entry, looked up): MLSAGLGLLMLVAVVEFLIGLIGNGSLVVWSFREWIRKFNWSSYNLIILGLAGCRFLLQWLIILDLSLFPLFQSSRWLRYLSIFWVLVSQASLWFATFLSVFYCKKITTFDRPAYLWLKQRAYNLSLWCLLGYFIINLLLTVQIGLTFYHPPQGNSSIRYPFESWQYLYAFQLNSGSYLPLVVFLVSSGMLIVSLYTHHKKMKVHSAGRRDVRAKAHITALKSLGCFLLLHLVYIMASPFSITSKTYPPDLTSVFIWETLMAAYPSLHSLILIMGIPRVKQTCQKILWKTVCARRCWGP
Sequence of UniProt P50391 (whole entry, looked up): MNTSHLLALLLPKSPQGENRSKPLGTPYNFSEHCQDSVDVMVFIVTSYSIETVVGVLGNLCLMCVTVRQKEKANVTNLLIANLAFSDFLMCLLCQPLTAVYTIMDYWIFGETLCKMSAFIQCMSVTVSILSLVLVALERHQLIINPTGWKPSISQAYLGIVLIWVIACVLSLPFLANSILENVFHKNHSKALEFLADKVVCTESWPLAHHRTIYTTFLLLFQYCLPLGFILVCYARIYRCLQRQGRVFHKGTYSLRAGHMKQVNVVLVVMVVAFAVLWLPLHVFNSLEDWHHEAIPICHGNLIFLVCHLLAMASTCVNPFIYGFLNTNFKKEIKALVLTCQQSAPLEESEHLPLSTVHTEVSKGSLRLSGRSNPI
Sequence of UniProt P50241 (whole entry, looked up): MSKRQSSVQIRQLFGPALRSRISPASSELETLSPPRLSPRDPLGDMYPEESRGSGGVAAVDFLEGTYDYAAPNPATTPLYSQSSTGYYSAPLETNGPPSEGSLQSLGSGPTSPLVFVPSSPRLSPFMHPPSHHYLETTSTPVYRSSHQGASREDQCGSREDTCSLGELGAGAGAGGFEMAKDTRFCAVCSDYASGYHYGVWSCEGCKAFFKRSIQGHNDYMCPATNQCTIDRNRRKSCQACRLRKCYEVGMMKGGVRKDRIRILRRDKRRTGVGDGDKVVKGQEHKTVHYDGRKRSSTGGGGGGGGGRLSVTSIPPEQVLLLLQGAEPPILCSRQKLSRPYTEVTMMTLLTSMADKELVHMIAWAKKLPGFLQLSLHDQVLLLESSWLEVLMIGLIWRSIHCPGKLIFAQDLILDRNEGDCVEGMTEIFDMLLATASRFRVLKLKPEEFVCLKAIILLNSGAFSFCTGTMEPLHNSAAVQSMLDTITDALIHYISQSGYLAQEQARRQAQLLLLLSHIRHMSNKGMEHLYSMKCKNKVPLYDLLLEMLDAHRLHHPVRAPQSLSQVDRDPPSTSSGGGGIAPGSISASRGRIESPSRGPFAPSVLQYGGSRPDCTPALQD
Sequence of UniProt P04150 (whole entry, looked up): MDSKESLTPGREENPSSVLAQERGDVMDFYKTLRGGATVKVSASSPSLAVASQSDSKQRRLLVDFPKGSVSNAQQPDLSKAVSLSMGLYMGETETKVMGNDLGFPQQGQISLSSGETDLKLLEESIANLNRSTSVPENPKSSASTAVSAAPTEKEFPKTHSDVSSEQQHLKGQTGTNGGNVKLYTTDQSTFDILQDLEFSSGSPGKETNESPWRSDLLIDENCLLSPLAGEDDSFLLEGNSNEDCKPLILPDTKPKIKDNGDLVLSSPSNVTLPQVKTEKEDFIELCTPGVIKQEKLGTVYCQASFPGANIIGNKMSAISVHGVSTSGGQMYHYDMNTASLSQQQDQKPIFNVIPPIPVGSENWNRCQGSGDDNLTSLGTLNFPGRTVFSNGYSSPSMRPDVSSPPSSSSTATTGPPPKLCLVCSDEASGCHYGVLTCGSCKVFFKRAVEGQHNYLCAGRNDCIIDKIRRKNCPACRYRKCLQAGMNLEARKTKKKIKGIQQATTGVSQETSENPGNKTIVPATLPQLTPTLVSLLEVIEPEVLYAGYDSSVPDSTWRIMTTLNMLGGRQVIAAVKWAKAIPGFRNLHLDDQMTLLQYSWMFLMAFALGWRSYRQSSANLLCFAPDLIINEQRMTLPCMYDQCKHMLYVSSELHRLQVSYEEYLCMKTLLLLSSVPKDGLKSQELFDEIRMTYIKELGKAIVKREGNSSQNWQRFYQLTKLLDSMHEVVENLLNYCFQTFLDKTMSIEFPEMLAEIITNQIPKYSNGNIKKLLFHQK
Sequence of UniProt O14791 (whole entry, unmodified, looked up): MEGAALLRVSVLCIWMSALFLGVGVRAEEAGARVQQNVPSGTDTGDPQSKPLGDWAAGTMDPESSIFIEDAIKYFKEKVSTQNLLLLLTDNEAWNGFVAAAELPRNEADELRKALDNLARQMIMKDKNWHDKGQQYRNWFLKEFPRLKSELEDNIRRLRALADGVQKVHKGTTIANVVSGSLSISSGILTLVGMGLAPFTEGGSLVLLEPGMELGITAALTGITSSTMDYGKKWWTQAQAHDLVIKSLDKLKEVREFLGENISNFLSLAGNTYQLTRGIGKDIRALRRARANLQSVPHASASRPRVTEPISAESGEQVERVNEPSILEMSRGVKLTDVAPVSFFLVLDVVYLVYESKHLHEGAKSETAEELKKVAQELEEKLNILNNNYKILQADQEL
Sequence of UniProt P05804 (whole entry, looked up): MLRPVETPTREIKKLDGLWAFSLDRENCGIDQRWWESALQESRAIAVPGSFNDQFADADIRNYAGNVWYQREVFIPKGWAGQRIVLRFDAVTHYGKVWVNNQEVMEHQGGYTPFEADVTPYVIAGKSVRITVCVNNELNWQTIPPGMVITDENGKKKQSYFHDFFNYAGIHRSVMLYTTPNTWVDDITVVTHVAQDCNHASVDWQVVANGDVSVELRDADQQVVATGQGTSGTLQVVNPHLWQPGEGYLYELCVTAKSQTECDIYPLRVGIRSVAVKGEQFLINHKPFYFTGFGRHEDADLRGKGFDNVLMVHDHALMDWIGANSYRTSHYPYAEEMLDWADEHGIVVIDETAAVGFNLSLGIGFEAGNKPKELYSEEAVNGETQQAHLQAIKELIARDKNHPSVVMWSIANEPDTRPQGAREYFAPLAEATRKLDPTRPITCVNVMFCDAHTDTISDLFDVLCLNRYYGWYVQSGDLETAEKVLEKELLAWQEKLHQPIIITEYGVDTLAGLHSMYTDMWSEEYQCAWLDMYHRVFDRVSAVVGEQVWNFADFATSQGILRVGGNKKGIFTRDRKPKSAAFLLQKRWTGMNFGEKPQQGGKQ

Structure (SMILES)	target	test	test system	setting	EC50
CC[C@H](C)[C@H](NC(=O)CNC(=O)[C@H](CO)NC(=O)[C@H](CC(C)C)NC(=O)[C@@H](NC(=O)[C@H](CCCNC(=N)N)NC(=O)CNC(=O)[C@@H](NC(=O)[C@H](CC(C)C)NC(=O)[C@@H]1CCCN1C(=O)[C@H](CC(C)C)NC(=O)[C@@H](N)Cc1ccccc1)[C@@H](C)CC)C(C)C)C(=O)N[C@@H](CC(C)C)C(N)=O	Formyl peptide receptor 2 (Mus musculus, UniProt O88536)	calcium mobilisation, agonist, FLIPR Fluo-4	HEK-293T with Gα16		690 nM
CSCC[C@H](NC(=O)[C@H](Cc1ccccc1)NC(=O)[C@H](Cc1c[nH]cn1)NC(=O)CNC(=O)[C@@H](NC(=O)[C@H](C)NC(=O)[C@H](Cc1c[nH]c2ccccc12)NC(=O)[C@H](CCC(N)=O)NC(=O)[C@@H]1CCCN1C(=O)CNC(=O)CNC(=O)CNC(=O)[C@@H]1CCC(=O)N1)C(C)C)C(N)=O	GRPR	inositol phosphate, agonist			0.19 nM
CC(=O)N[C@@H](CCCNC(=N)N)C(=O)N[C@H](Cc1ccc(O)cc1)C(=O)N[C@@H](CCCNC(=N)NC(=O)NCCCCN)C(=O)N[C@@H](CC(C)C)C(=O)N[C@@H](CCCNC(=N)N)C(=O)N[C@@H](Cc1ccc(O)cc1)C(N)=O	Neuropeptide Y receptor type 4 (NPY4R, Homo sapiens, UniProt P50391)	β-arrestin 2 recruitment, agonist	HEK293T		710 ± 200 nM
CC(C)C[C@H](NC(=O)[C@H](CCCNC(=N)N)NC(=O)[C@@H]1CCCN1C(=O)[C@H](CCCCN)NC(=O)[C@H](Cc1ccccc1)NC(=O)CCC(=O)Nc1ccc2c(c1)Cc1cc(Br)ccc1-2)C(N)=O	diapause hormone receptor (Helicoverpa zea, UniProt S5LVZ5)	aequorin luminescence, agonist	CHO-K1 cells, Ga16 co-expressing		20.6 nM
CC(=O)N[C@@H](CCCNC(=N)N)C(=O)N[C@@H](CCCNC(=N)N)C(=O)N[C@@H](C(=O)N1Cc2ccccc2C[C@H]1C(N)=O)[C@H](c1ccccc1)c1c[nH]c2ccccc12	Mc1r	cAMP, agonist, AlphaScreen			210 nM
Cc1ccc(Cn2cc(C(=O)N[C@H]3CCCC[C@@H]3O)c3c(F)cc(F)cc32)cn1	CHRM1	calcium mobilization, positive allosteric modulator	CHO	added: acetylcholine EC20	1660 nM
CC[C@H](C)[C@H](NC(=O)[C@H](CO)NC(=O)[C@H](Cc1ccc(O)cc1)NC(=O)[C@H](CC(=O)O)NC(=O)[C@H](CO)NC(=O)[C@@H](NC(=O)[C@H](Cc1ccccc1)NC(=O)[C@@H](NC(=O)CNC(=O)[C@H](CCC(=O)O)NC(=O)C(C)(C)NC(=O)[C@@H](N)Cc1ccc(O)cc1)[C@@H](C)O)[C@@H](C)CC)C(=O)N[C@@H](C)C(=O)N[C@@H](CCSC)C(=O)N[C@@H](CC(=O)O)C(=O)N[C@@H](CCCCN)C(=O)N[C@H](C(=O)N[C@@H](CCCNC(=N)N)C(=O)N[C@@H](CCC(N)=O)C(=O)N[C@@H](CCC(N)=O)C(=O)N[C@@H](CC(=O)O)C(=O)N[C@@H](Cc1ccccc1)C(=O)N[C@H](C(=O)N[C@@H](CC(N)=O)C(=O)N[C@@H](Cc1c[nH]c2ccccc12)C(=O)N[C@@H](CC(C)C)C(=O)N[C@@H](CC(C)C)C(=O)N[C@@H](C)C(=O)N[C@@H](CCC(N)=O)C(=O)N[C@@H](CCCCN)C(=O)NCC(=O)N[C@@H](CCCCN)C(=O)N[C@@H](CCCCN)C(=O)N[C@@H](CC(N)=O)C(=O)N[C@@H](CC(=O)O)C(=O)N[C@@H](Cc1c[nH]c2ccccc12)C(=O)N[C@@H](CCCCN)C(=O)N[C@@H](Cc1c[nH]cn1)C(=O)N[C@@H](CC(N)=O)C(=O)N[C@H](C(=O)N[C@H](C(=O)N[C@@H](CCC(N)=O)C(=O)O)[C@@H](C)O)[C@@H](C)CC)C(C)C)[C@@H](C)CC	Gastric inhibitory polypeptide receptor (Mus musculus, UniProt Q0P543)	reporter gene, agonist, luciferase			0.0034 nM
CC(C)C[C@H](NC(=O)[C@H](CC(C)C)NC(=O)[C@@H](Cc1c[nH]c2ccccc12)NC(=O)[C@@H](NC(=O)[C@@H](Cc1csc2ccccc12)NC(=O)[C@@H](N)CCCCN)[C@@H](c1ccccc1)c1c[nH]c2ccccc12)C(N)=O	Growth hormone secretagogue receptor type 1 (GHSR, Homo sapiens, UniProt Q92847)	inositol phosphate, agonist, TR-FRET			> 1000 nM
CSCC[C@H](NC(=O)[C@H](Cc1ccccc1)NC(=O)[C@H](Cc1c[nH]cn1)NC(=O)CNC(=O)[C@@H](NC(=O)[C@H](C)NC(=O)[C@H](Cc1c[nH]c2ccccc12)NC(=O)[C@H](CCC(N)=O)NC(=O)[C@@H]1CCC(=O)N1)C(C)C)C(N)=O	GRPR	inositol phosphate, agonist			0.17 nM
CC(C)[C@H]1CC[C@@H](N2CC[C@@](C)(c3cccc(O)c3)[C@@H](C)C2)CC1	Mu-type opioid receptor (OPRM1, Homo sapiens, UniProt P35372)	GTPγS binding, agonist, radiometric			> 10000 nM
Cn1ccc(-c2ccc(Cn3cc(C(=O)N[C@H]4CCCC[C@@H]4O)c4c(F)cc(F)cc43)cn2)n1	CHRM1	calcium mobilisation, positive allosteric modulator	CHO	added: acetylcholine EC20	224 nM
C[N+](C)(CC#CCOC1=NOCC1)CCCCCCNC(=O)CCOCCOCCOCCOCCNC(=O)CCCC(=O)NCCCCC(C(=O)O)N(CC(=O)O)CC(=O)O (centres unmarked)	CHRM1	calcium response, agonist	primary rat cortical astrocytes		170 nM
c1cnc2c(c1)c1nccnc1c1cccnc12	Taste receptor type 2 member 5 (TAS2R5, Homo sapiens, UniProt Q9NYW4)	calcium signal, agonist			77600 nM
CCNc1nc(Cl)nc(NC(C)(C)C#N)n1	Estrogen receptor (esr1, Oryzias latipes, UniProt P50241)	receptor activation, agonist			> 100000 nM
CNc1ccc2c(n1)sc1c(N3CCNCC3)nc(NC)nc12	Beta-glucuronidase (uidA, Escherichia coli, UniProt P05804)				8 ± 4 nM
CCCC[C@H](NC=O)C(=O)N[C@@H](CCCC)C(=O)N[C@@H](Cc1c[nH]c2ccccc12)C(=O)N[C@@H](CCC(=O)O)C(=O)N[C@@H](CC(=O)O)C(=O)N[C@@H](Cc1c[nH]c2ccccc12)C(=O)N[C@H](C(=O)NCC(=O)N[C@@H](Cc1c[nH]c2ccccc12)C(=O)N[C@H](C(=O)O)[C@@H](C)CC)C(C)C	fMet-Leu-Phe receptor (FPR1, Homo sapiens, UniProt P21462, N192K)	receptor surface downregulation, agonist	CHO cells	1 h, 37 °C	40 ± 3 nM
O=C(CCc1ccc(Br)cc1)N[C@H]1CCOC1=O	Transcriptional activator protein LasR (lasR, Pseudomonas aeruginosa, UniProt P25084)	reporter gene, agonist	PAO-JP2 pump active		> 200000 nM
CC[C@H](C)[C@@H]1NC(=O)[C@H](Cc2ccccc2)NC(=O)[C@H](CC(N)=O)NC(=O)[C@@H](NC(=O)[C@@H](NC(=O)[C@H](CO)NC(=O)[C@@H](N)Cc2ccc(O)cc2)[C@@H](C)O)CSC(=O)[C@H](CCSC)NC1=O	Receptor-histidine kinase AgrC (agrC, Staphylococcus aureus, UniProt O07911)				40.4 nM
CC(=O)N[C@@H](CCCNC(=N)N)C(=O)N[C@@H](CCCNC(=N)N)C(=O)N[C@H](Cc1ccc(I)cc1)C(=O)N[C@H](C(N)=O)[C@@H](c1ccccc1)c1c[nH]c2ccccc12	Mc1r	cAMP, agonist, AlphaScreen			260 nM
CCOC(=O)/C=C/[C@H](C[C@@H]1CCNC1=O)NC(=O)[C@H](Cc1ccccc1)NC(=O)[C@H](COC(C)(C)C)NC(=O)OCc1ccccc1	Genome polyprotein, 3C protease (Coxsackievirus B3, UniProt P03313)	protease activity, inhibitor, FLuc reporter	COS-1	16 h	4100 nM
CC(C)C[C@H](NC(=O)[C@H](CC(C)C)NC(=O)[C@H](Cc1c[nH]cn1)NC(=O)CNC(=O)[C@@H](NC(=O)[C@H](C)NC(=O)[C@H](Cc1c[nH]c2ccccc12)NC(=O)[C@H](CCC(N)=O)NC(=O)[C@H](CC(N)=O)NC(=O)CNC(=O)[C@H](CC(C)C)NC(=O)[C@H](CCCNC(=N)N)NC(=O)[C@H](CCC(N)=O)NC(=O)[C@@H]1CCC(=O)N1)C(C)C)C(N)=O	GRPR	inositol phosphate, agonist			1.95 nM
COCC(=O)NCCSc1c(-c2ccc(Br)cc2)[nH]c2ccccc12	Apolipoprotein L1 (Homo sapiens, UniProt O14791, I384M/M228I/R255K/S342G)	cell death rescue, inhibitor	HEK293 expressing Apolipoprotein L1		1100 nM
Clc1ccc2c(c1)N=C(N1CCNCC1)c1ccccc1N2	Muscarinic acetylcholine receptor M3 (CHRM3, Homo sapiens, UniProt P20309, A239G/Y149C)	calcium signal, agonist			2.1 nM
C[C@]12C=CC(=O)C=C1CC[C@@H]1[C@@H]2[C@@H](O)C[C@@]2(C)[C@H]1C[C@H]1O[C@@H](C3CCCCC3)O[C@]12C(=O)CO	Glucocorticoid receptor (NR3C1, Homo sapiens, UniProt P04150)			concentration not given	4 nM
CCN1CCN(C2=Nc3cc(Cl)ccc3Nc3ccccc32)CC1	Muscarinic acetylcholine receptor M3 (CHRM3, Homo sapiens, UniProt P20309)	calcium signal, agonist			> 30000 nM
C[C@@H]1NC(=O)[C@H](CC(N)=O)N2C[C@H](Cc3c[nH]c4ccccc34)NC(=O)[C@@H](CSCC2=O)NC(=O)[C@H](CCCNC(=N)N)NC(=O)[C@@H](Cc2ccccc2)NC(=O)[C@H](Cc2c[nH]cn2)NC(=O)[C@@H](NC(=O)[C@@H](N)Cc2ccc(O)cc2)CSSC[C@@H](C(=O)N[C@@H](Cc2ccc(O)cc2)C(N)=O)NC(=O)[C@H](Cc2ccccc2)NC1=O	Mc1r	reporter gene, agonist			0.81 nM
CSCC[C@H](NC=O)C(=O)N[C@@H](Cc1ccccc1)C(=O)N[C@@H](CCC(=O)O)C(=O)N[C@@H](CC(=O)O)C(=O)N[C@@H](C)C(=O)N[C@H](C(=O)N[C@@H](C)C(=O)N[C@@H](Cc1c[nH]c2ccccc12)C(=O)N[C@@H](Cc1ccccc1)C(=O)O)C(C)C	fMet-Leu-Phe receptor (FPR1, Homo sapiens, UniProt P21462)	receptor surface downregulation, agonist	CHO cells	1 h, 37 °C	1500 ± 100 nM
CC[C@H](C)[C@H](NC(=O)[C@H](CCCCN)NC(=O)[C@H](CC(C)C)NC(=O)[C@H](Cc1ccccc1)NC(=O)[C@H](Cc1ccccc1)NC(=O)CNC(=O)[C@@H]1CCCN1C(=O)[C@H](CO)NC(=O)[C@H](CO)NC(=O)[C@H](CC(=O)O)NC(=O)[C@@H](N)CC(=O)O)C(=O)N[C@H](C(=O)N[C@@H](CCCCN)C(=O)N[C@@H](CC(N)=O)C(=O)N[C@H](C(=O)N1CCC[C@H]1C(=O)N[C@@H](CCCNC(=N)N)C(=O)N[C@@H](CC(C)C)C(N)=O)C(C)C)[C@@H](C)O	Ecdysis triggering hormone receptor B (Aedes aegypti, UniProt A7J265)				~10 nM
CCOC(=O)[C@](CC)(CCCSCCOCCOCCNc1ccc([N+](=O)[O-])c2nonc12)NC(=O)c1ccc(C2CC2)c(Cc2ccc(F)cc2)n1	Cannabinoid receptor 2 (CNR2, Homo sapiens, UniProt P34972)	cAMP, agonist			2.2 nM
